# Published values gathered from unrelated publications.
# Each numbered part is a random draw from the data of one study; scales do not carry over between parts. “And” joins repeats or separate records; there may be more than shown.
# Sequence of UniProt P07948 (whole entry, looked up): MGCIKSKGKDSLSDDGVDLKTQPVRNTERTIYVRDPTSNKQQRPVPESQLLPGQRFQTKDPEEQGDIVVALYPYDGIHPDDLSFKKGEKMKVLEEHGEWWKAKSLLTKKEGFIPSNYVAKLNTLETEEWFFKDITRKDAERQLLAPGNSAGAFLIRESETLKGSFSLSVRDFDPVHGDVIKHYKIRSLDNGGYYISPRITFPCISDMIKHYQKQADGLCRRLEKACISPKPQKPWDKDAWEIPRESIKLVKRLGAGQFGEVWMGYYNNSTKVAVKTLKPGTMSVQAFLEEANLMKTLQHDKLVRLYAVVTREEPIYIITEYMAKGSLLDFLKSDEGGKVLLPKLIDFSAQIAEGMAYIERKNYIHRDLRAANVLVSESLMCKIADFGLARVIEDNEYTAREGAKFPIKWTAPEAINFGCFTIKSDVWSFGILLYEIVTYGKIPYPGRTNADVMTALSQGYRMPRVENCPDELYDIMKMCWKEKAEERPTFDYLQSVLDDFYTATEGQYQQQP
# Sequence of UniProt P05771 (whole entry, looked up): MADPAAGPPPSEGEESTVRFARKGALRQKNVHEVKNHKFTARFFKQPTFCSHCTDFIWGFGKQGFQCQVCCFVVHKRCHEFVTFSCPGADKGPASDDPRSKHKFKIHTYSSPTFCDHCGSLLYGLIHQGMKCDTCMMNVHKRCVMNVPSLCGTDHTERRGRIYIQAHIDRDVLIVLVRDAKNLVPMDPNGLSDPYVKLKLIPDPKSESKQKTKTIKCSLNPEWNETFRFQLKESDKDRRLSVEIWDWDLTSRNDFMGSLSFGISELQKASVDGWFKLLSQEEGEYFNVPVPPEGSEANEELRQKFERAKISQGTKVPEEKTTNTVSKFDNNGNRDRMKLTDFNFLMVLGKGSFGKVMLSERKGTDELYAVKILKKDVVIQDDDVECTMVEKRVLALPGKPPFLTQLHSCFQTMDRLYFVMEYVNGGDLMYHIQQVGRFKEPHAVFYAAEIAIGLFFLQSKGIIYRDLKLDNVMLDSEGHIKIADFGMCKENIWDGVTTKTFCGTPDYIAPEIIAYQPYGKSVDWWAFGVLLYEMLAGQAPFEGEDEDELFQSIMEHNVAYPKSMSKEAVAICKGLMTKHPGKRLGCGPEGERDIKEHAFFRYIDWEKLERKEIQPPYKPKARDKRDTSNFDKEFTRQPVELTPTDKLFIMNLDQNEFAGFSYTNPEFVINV
# Sequence of UniProt Q13976 (whole entry, looked up): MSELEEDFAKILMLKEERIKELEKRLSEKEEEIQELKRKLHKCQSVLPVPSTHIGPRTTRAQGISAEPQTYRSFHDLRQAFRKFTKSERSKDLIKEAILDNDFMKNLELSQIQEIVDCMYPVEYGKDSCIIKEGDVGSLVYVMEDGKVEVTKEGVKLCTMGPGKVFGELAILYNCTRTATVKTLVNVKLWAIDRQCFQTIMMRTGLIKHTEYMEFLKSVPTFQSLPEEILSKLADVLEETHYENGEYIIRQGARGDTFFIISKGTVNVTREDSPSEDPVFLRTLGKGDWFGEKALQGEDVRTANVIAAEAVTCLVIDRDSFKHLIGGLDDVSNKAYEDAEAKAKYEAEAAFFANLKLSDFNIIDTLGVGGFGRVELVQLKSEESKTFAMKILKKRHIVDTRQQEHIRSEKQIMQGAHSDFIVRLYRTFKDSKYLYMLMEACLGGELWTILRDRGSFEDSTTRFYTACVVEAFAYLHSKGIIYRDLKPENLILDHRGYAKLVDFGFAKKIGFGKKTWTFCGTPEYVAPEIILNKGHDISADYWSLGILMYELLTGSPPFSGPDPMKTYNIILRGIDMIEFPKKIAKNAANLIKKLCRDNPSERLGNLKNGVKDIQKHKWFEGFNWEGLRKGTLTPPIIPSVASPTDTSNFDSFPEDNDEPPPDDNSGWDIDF

# Set 1
# Compound: O=c1[nH]c2ccccc2n1C1CCN(Cc2ccc(-c3[nH]c4cc5ncnc5cc4nc3-c3ccccc3)cc2)CC1
# Observed: enzyme activity
# Action: inhibitor
# Concentration: 0.5 µM
# Relative to: control
target,remaining activity
"Protein kinase C beta type, isoform beta-I (PRKCB, Homo sapiens, UniProt P05771)",108%
"Tyrosine-protein kinase Lyn, isoform B (LYN, Homo sapiens, UniProt P07948)",116%
"cGMP-dependent protein kinase 1, isoform beta (PRKG1, Homo sapiens, UniProt Q13976)",101%

# Set 2
# SMILES: CNC(=O)c1ccc(-c2cnn3ccc(C(=O)N(C)c4ccc(Cl)c(C(=O)OC)c4)cc23)cc1
# Organism: Cryptosporidium parvum
# Method: time-kill
# Cell line: HCT-8
# Strain: nanoluciferase-expressing
# Reading: higher = more parasites
setting,parasite luminescence
"0.7407 µM, 24 h",111000 RLU and 106000 RLU
"0.2469 µM, 24 h",96900 RLU and 68500 RLU
"6.667 µM, 24 h",108000 RLU and 103000 RLU
"20 µM, 8 h",92700 RLU and 89400 RLU
"0.00914 µM, 8 h",82300 RLU and 71600 RLU
"20 µM, 4 h",87800 RLU and 71000 RLU
"0.00914 µM, 48 h",36000 RLU and 36600 RLU
"2.222 µM, 72 h",19800 RLU and 20800 RLU
"2.222 µM, 24 h",94400 RLU and 95800 RLU
"0.2469 µM, 8 h",115000 RLU and 95800 RLU
"2.222 µM, 4 h",81700 RLU and 105000 RLU
"0.00305 µM, 8 h",80200 RLU and 84100 RLU

# Set 3
# Compound: c1ccc(Oc2ccc(Nc3c4c(nc5ccccc35)CCC4)cc2)cc1
# Organism: Leishmania donovani
# Observed: parasite growth
# Strain: DD8 amphotericin B-resistant
system,setting,inhibition
promastigotes,0.0033 µM,2% and 1% and 5%
intracellular amastigotes,2 µM,81% and 83% and 84%
promastigotes,0.16 µM,2% and 8% and 1% and 4% and 7%
intracellular amastigotes,0.02 µM,0% and 5% and 2%
intracellular amastigotes,8 µM,100% and 94% and 99%

# Set 4
# Cell line: mouse MPNST tumor cells
# Method: high-content nuclear imaging
# Item: cell number
# Concentration: 10 µM
# Time: 12 h
# Setting: mean of 2 replicates
# Relative to: plate mean
# Reading: higher = more cells
SMILES,nuclei count [z-score]
COC(=O)CN1CN(c2ccccc2)C2(CCN(Cc3ccc4ccccc4c3)CC2)C1=O,2.88
O=C1CN=C(c2ccc[nH]2)c2cc(Cl)ccc2N1,2.12
CO[C@]12C[C@@H](COC(=O)c3cncc(Br)c3)CN(C)[C@@H]1Cc1cn(C)c3cccc2c13,1.31
NP(N)(=O)NC(=O)c1ccc(F)cc1,1.5
O=C1Nc2ccc(Cl)c3c2C1(CCCCN1CC=C(c2ccc(Cl)cc2)CC1)CCC3 (stereo not shown),-4.8
Fc1cc(F)c2c(c1)[C@H]1C=CC[C@H]1C(c1cccnc1)N2 (stereo partly shown),-1.08
CN/C(=N\S(=O)(=O)c1ccc(Cl)cc1)N1C[C@H](c2ccccc2)C(c2ccc(Cl)cc2)=N1,0.923
CNC(C)(C)Cc1ccccc1,1.11

# A few entries again (set 4):
SMILES,nuclei count [z-score]
COC(=O)CN1CN(c2ccccc2)C2(CCN(Cc3ccc4ccccc4c3)CC2)C1=O,2.88
O=C1CN=C(c2ccc[nH]2)c2cc(Cl)ccc2N1,2.12
CO[C@]12C[C@@H](COC(=O)c3cncc(Br)c3)CN(C)[C@@H]1Cc1cn(C)c3cccc2c13,1.31
